Published values collected from several papers.
Numbered parts are unrelated; each lists some results of a single study.

Block 1 — technique: protein binding microarray; form: double-stranded DNA, one strand shown; sample: in vitro; concentration: not given; reference: not given; direction: higher = stronger binding
Target: Histone acetyltransferase KAT6A, winged helix 2, GST fusion (KAT6A, Homo sapiens, UniProt Q92794, residues 85-181)
Notes: 8-mer, flanks averaged, mean of 2 arrays, mostly near background
Target sequence (chain): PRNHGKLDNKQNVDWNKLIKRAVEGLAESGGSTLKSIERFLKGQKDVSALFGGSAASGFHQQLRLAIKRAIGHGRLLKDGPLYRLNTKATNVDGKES
Strand | E-score
TAGCGAAA | 0.0642
TCCCTTCA | -0.0348
AGGCGAAT | 0.105
ATCAAGGA | 0.0109
AACGGGTG | -0.0686
AGTGTGTC | 0.0452
ATCGGGGG | -0.0488
AGTACACG | -0.107

Block 2 — technique: RNA Bind-n-Seq; form: RNA; sample: in vitro; concentration: 365 nM; reference: no-protein control; direction: higher = stronger binding
Target: RNA binding protein fox-1 homolog 2, RRM domain, GST-SBP tag (RBFOX2, Homo sapiens, UniProt O43251-10, residues 100-194)
Notes: natural RNA segment, single round, ends assumed
Constant ends, left off below: GGGAGUUCUACAGUCCGACGAUC … UGGAAUUCUCGGGUGCCAA
Construct (chain): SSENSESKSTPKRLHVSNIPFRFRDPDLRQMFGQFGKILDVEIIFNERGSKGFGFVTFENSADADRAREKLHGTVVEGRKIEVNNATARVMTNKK
Strand | RBNS enrichment (R)
AAAAAUAUGUAAUAUUUGGACCAGAUGUUGUGAAUAAUAGUAGAGAUAAAGCUAUUUUAUUCUGUAUUUUUAAAACUGUUCCGUACAAAUAAAAGCUCUCCUGGACACAG | 0.385
UCUGUUUCUAGACCUCAGUUAUUUUCCCAUUUUUGGUUGUUUUGAAGCAGUAACAUUUUUCUCAGUGCACAUGCAAUUUGGGUUUUAGAGAAGAUGGCCACCAGCUGGCU | 0.449
CGAUGUGUGCUUUAGGGAAUUUUAAGUUGCAUGCAUUUCAGAGACUUUAAGUCAGUUGGUUUUUAUUAGCUGCUUGGUAUGCAGUAACUUGGGUGGAGGCAAAACACUAA | 1.02
UAAUGAUCUGCAAGUCCCGGAGAGCAACAGCACAGCUCUGCCUGACGCUCUCAUUAAAAUCUAUGCAGCCAAGCUCGGCACUUUGUAGCAGCCGGCCUUGCGAAGCCUCC | 0.308
GAAUGGCCACCAGGCUUCCCAGAGUUCUAUGGUCUUCUUCCCAAGAGAGUUUUUAAUUGUAAAUGCAUACUUGGGAAGGACUUAGAGUUUUAAACUGUUUUUUGCUUUUG | 0.58
CCUUCUGGCCAAUUUAAGGAGAAGCAUUGAGGGGCCCUGAAAGGAGUCACUUCCAGUCCUCCUCAGAGGAUGUGAUGGUGGUAGGAGAGCCAACUCUGAUGGGAGGUGAG | 0.511
CCCAAGGUUCUAUCCUGUUCCGAGCAACUUUUCUAAUUAUAAACAUCACAGAACAUCCUGGAUCAAAGCGUGUGUCUUGCUCUGUCUCUAUCCUUGCUUGCAGCUCUUAG | 0.993
UGGGGUGCACCUGUCCAAUAGGCGUAGCUAUCCGGACAGAGCACGUUUGCAGAAGGGGGUCUCUUCUUCCAGGUAGCUGAAAGGGGAAGACCUGACGUACUCUGGUUAGG | 0.583

Further values, each from its own experiment
Substance | target or system | test | test system | conditions | how to read | measurement | result
EPC1 (Homo sapiens, UniProt Q9H2F5) | MDN1 (Homo sapiens, UniProt Q9NU22) | cross-linking MS | cell fractions | with: DSSO |  | cross-linked residues | K252 to K3370
PPVKRRLDLETDH | human cyclin B2 | cyclin docking binding, deep mutational scanning | peptide, yeast cyclin B2-Cln2 system |  | direction not given | score minus score, wild type | 0
DDX54 (Homo sapiens, UniProt Q8TDD1) | NOC3L (Homo sapiens, UniProt Q8WTT2) | cross-linking MS | cell fractions | with: DMTMM |  | cross-linked residues | K125 to E718
PhoQ, residues 284 288 289 292 302 303 SCKMEA | PhoP, residues 12 14 15 18 19 LHSVQ (Escherichia coli, UniProt P23836) | Sort-seq, item: YFP reporter | E. coli | PhoQ-PhoP variant library, with: 10 µM Mg2+ | reference: high Mg2+ state, higher = stronger signaling | fold induction | 19.8
KLHL41 (Homo sapiens, UniProt O60662) | HNRNPAB (Homo sapiens, UniProt Q99729) | cross-linking MS | cell fractions | with: DSSO |  | cross-linked residues | K31 to Y88
TRMT10C (Homo sapiens, UniProt Q7L0Y3) | HSD17B10 (Homo sapiens, UniProt Q99714) | cross-linking MS |  | hits only |  | interaction screen | cross-linked

A few entries again (block 1):
Strand | E-score
TCCCTTCA | -0.0348
AGTGTGTC | 0.0452
AGTACACG | -0.107
AGGCGAAT | 0.105
